Assay results pooled from the literature.
Protocols differ between the studies behind these lines. ± gives the spread as reported.
Cell line: human erythrocytes

Compound	assay	setting	scale	measurement	result
CCCCCCCCCCCC(=O)NCC(=O)N[C@@H](CC(C)C)C(=O)N[C@@H](CC(C)C)C(=O)N[C@@H](CCCCN)C(=O)N[C@@H](CCCNC(=N)N)C(=O)N[C@H](C(=O)N[C@@H](CCCCN)C(=O)N[C@H](C(=O)N[C@@H](CC(C)C)C(=O)N[C@@H](CC(C)C)C(=O)NCCCC[C@H](NC(=O)[C@H](CC(C)C)NC(=O)[C@H](CC(C)C)NC(=O)[C@@H](NC(=O)[C@H](CCCCN)NC(=O)[C@@H](NC(=O)[C@H](CCCNC(=N)N)NC(=O)[C@H](CCCCN)NC(=O)[C@H](CC(C)C)NC(=O)[C@H](CC(C)C)NC(=O)CNC(=O)CCCCCCCCCCC)[C@@H](C)CC)[C@@H](C)O)C(N)=O)[C@@H](C)O)[C@@H](C)CC	–	1 h, 37 °C, 10% haemolysis	–	minimum haemolytic concentration	15.2 µM
CC[C@H](C)[C@H](NC(=O)[C@H](CC(C)C)NC(=O)CNC(=O)[C@H](CCCCN)NC(=O)[C@@H](NC(=O)[C@@H](NC(=O)[C@H](CC(N)=O)NC(=O)[C@H](Cc1c[nH]c2ccccc12)NC(=O)[C@@H](NC(=O)[C@H](CCC(=O)O)NC(=O)CNC(=O)[C@H](Cc1c[nH]c2ccccc12)NC(=O)[C@@H](N)CC(C)C)[C@@H](C)CC)[C@@H](C)O)C(C)C)C(N)=O	–	up to 10 µg/mL, 1 h, 37 °C	–	viability	> 95%
CC(C)C[C@H](NC(=O)[C@H](C)NC(=O)CNC(=O)[C@@H](NC(=O)[C@@H](NC(=O)[C@H](CCCCN)NC(=O)[C@H](CCCCN)NC(=O)[C@H](CC(C)C)NC(=O)[C@H](CC(C)C)NC(=O)[C@H](CCCCN)NC(=O)[C@H](CC(C)C)NC(=O)[C@H](CC(C)C)NC(=O)[C@@H](N)CCCCN)C(C)C)C(C)C)C(=O)NCC(N)=O	–	≤5% haemolysis	–	minimal haemolytic concentration	125 µM
CCCC(=O)NCC(=O)N[C@@H](CC(C)C)C(=O)N[C@@H](CC(C)C)C(=O)N[C@@H](CCCCN)C(=O)N[C@@H](CCCNC(=N)N)C(=O)N[C@H](C(=O)N[C@@H](CCCCN)C(=O)N[C@H](C(=O)N[C@@H](CC(C)C)C(=O)N[C@@H](CC(C)C)C(=O)NCCCC[C@H](NC(=O)[C@H](CC(C)C)NC(=O)[C@H](CC(C)C)NC(=O)[C@@H](NC(=O)[C@H](CCCCN)NC(=O)[C@@H](NC(=O)[C@H](CCCNC(=N)N)NC(=O)[C@H](CCCCN)NC(=O)[C@H](CC(C)C)NC(=O)[C@H](CC(C)C)NC(=O)CNC(=O)CCC)[C@@H](C)CC)[C@@H](C)O)C(=O)NCCCC[C@H](NC(=O)[C@H](CCCCNC(=O)[C@H](CC(C)C)NC(=O)[C@H](CC(C)C)NC(=O)[C@@H](NC(=O)[C@H](CCCCN)NC(=O)[C@@H](NC(=O)[C@H](CCCNC(=N)N)NC(=O)[C@H](CCCCN)NC(=O)[C@H](CC(C)C)NC(=O)[C@H](CC(C)C)NC(=O)CNC(=O)CCC)[C@@H](C)CC)[C@@H](C)O)NC(=O)[C@H](CC(C)C)NC(=O)[C@H](CC(C)C)NC(=O)[C@@H](NC(=O)[C@H](CCCCN)NC(=O)[C@@H](NC(=O)[C@H](CCCNC(=N)N)NC(=O)[C@H](CCCCN)NC(=O)[C@H](CC(C)C)NC(=O)[C@H](CC(C)C)NC(=O)CNC(=O)CCC)[C@@H](C)CC)[C@@H](C)O)C(N)=O)[C@@H](C)O)[C@@H](C)CC	–	1 h, 37 °C, 10% haemolysis	–	minimum haemolytic concentration	1.06 µM
CC[C@@H](C)[C@@H](NC(=O)[C@@H](C)NC(=O)[C@@H](CCCCN)NC(=O)[C@@H](CC(C)C)NC(=O)[C@@H](C)NC(=O)[C@H](NC(=O)[C@@H](Cc1c[nH]cn1)NC(=O)[C@@H](CC(C)C)NC(=O)[C@H](NC(=O)[C@H](NC(=O)[C@@H](CCCCN)NC(=O)[C@@H](CCCCN)NC(=O)[C@@H](C)NC(=O)[C@@H](CO)NC(=O)[C@@H](CCCCN)NC(=O)[C@@H](Cc1ccccc1)NC(=O)[C@H](NC(=O)[C@@H](CCCCN)NC(=O)[C@@H](CC(C)C)NC(=O)[C@@H](Cc1ccccc1)NC(=O)[C@@H](CO)NC(=O)[C@@H](CCCCN)NC(=O)[C@@H](Cc1c[nH]c2ccccc12)NC(=O)[C@@H](CCCCN)NC(C)=O)[C@H](C)O)[C@H](C)O)C(C)C)[C@H](C)O)C(=O)N[C@H](CO)C(=O)N[C@H](CO)C(N)=O	hemolysis	1% erythrocytes, 18 h, pH 7.4, 37 °C	–	HC50	1000 µg/mL
CC(C)C[C@H](NC(=O)CN)C(=O)N[C@@H](CC(C)C)C(=O)N[C@@H](CCCCN)C(=O)N[C@@H](CC(C)C)C(=O)N[C@@H](CC(C)C)C(=O)N[C@@H](CCCCN)C(=O)N[C@@H](CCCCN)C(=O)N[C@@H](CC(C)C)C(=O)N[C@@H](CC(C)C)C(=O)N[C@@H](CCCCN)C(=O)N[C@@H](CC(C)C)C(=O)N[C@@H](CC(C)C)C(=O)N[C@@H](CCCCN)C(N)=O	–	1 h, 37 °C, hemolysis ≤5%	–	minimal hemolytic concentration	8 µM
CC[C@@H](C)[C@@H](NC(=O)[C@@H](C)NC(=O)[C@@H](CCCCN)NC(=O)[C@@H](CC(C)C)NC(=O)[C@@H](C)NC(=O)[C@H](NC(=O)[C@@H](Cc1c[nH]cn1)NC(=O)[C@@H](CC(C)C)NC(=O)[C@H](NC(=O)[C@H](NC(=O)[C@@H](CCCCN)NC(=O)[C@@H](CCCCN)NC(=O)[C@@H](C)NC(=O)[C@@H](CO)NC(=O)[C@@H](CCCCN)NC(=O)[C@@H](Cc1ccccc1)NC(=O)[C@H](NC(=O)[C@@H](CCCCN)NC(=O)[C@@H](CC(C)C)NC(=O)[C@@H](Cc1ccccc1)NC(=O)[C@@H](CO)NC(=O)[C@@H](CCCCN)NC(=O)[C@@H](Cc1c[nH]c2ccccc12)NC(=O)[C@@H](CCCCN)NC(C)=O)[C@H](C)O)[C@H](C)O)C(C)C)[C@H](C)O)C(=O)N[C@H](CO)C(=O)N[C@H](CO)C(N)=O	–	18 h, pH 7.4, 37 °C	–	HC50	422 µg/mL
CC[C@@H](CC(=O)N[C@@H](CCCNC(=N)N)CC(=O)N[C@H](CC(=O)N[C@@H](CC)CC(=O)N[C@@H](CCCNC(=N)N)CC(=O)N[C@H](CC(=O)N[C@@H](CC)CC(=O)N[C@@H](CCCNC(=N)N)CC(N)=O)[C@@H](C)CC)[C@@H](C)CC)NC(=O)C[C@@H](NC(=O)C[C@@H](N)Cc1ccc(O)cc1)[C@@H](C)CC	–	antifungal MIC, 1 h, 37 °C	relative to: melittin	haemolysis	7.2 ± 3.4%
CCCCCCCCCC(=O)NCC(=O)N[C@@H](CC(C)C)C(=O)N[C@@H](CC(C)C)C(=O)N[C@@H](CCCCN)C(=O)N[C@@H](CCCNC(=N)N)C(=O)N[C@H](C(=O)N[C@@H](CCCCN)C(=O)N[C@H](C(=O)N[C@@H](CC(C)C)C(=O)N[C@@H](CC(C)C)C(=O)NCCCC[C@H](NC(=O)[C@H](CC(C)C)NC(=O)[C@H](CC(C)C)NC(=O)[C@@H](NC(=O)[C@H](CCCCN)NC(=O)[C@@H](NC(=O)[C@H](CCCNC(=N)N)NC(=O)[C@H](CCCCN)NC(=O)[C@H](CC(C)C)NC(=O)[C@H](CC(C)C)NC(=O)CNC(=O)CCCCCCCCC)[C@@H](C)CC)[C@@H](C)O)C(N)=O)[C@@H](C)O)[C@@H](C)CC	–	1 h, 37 °C, 10% haemolysis	–	minimum haemolytic concentration	26.6 µM
CC[C@H](C)[C@H](NC(=O)[C@H](Cc1c[nH]c2ccccc12)NC(=O)[C@H](CCCCN)NC(=O)[C@H](CC(C)C)NC(=O)[C@@H](NC(=O)[C@@H](NC(=O)CNC(=O)[C@H](CCCCN)NC(=O)[C@H](Cc1c[nH]cn1)NC(=O)[C@H](CCCCN)NC(=O)[C@H](Cc1c[nH]c2ccccc12)NC(=O)[C@H](C)NC(=O)[C@H](CC(C)C)NC(=O)[C@H](CO)NC(=O)[C@@H](NC(=O)[C@H](Cc1ccc(O)cc1)NC(=O)[C@H](CCCCN)NC(=O)[C@H](CCC(N)=O)NC(=O)CNC(=O)[C@H](CCCCN)NC(=O)[C@@H](NC(=O)[C@H](C)NC(=O)[C@H](CC(C)C)NC(=O)[C@H](Cc1ccccc1)NC(=O)[C@H](CCC(N)=O)NC(=O)[C@@H](NC(=O)[C@H](CC(C)C)NC(=O)[C@H](CCCCN)NC(=O)[C@H](CCSC)NC(=O)[C@H](Cc1ccccc1)NC(=O)[C@H](C)NC(=O)[C@H](C)NC(=O)[C@H](CCSC)NC=O)[C@@H](C)CC)[C@@H](C)O)C(C)C)[C@@H](C)O)[C@@H](C)CC)C(=O)N[C@@H](CC(N)=O)C(=O)N[C@@H](C)C(=O)NCC(=O)N[C@@H](CCC(N)=O)C(=O)N[C@@H](CO)C(=O)N[C@@H](Cc1ccccc1)C(=O)N[C@@H](CCC(=O)O)C(=O)N[C@@H](Cc1c[nH]c2ccccc12)C(=O)N[C@H](C(=O)N[C@@H](Cc1ccc(O)cc1)C(=O)N[C@@H](CCCCN)C(=O)N[C@@H](CCC(N)=O)C(=O)N[C@H](C(=O)N[C@@H](CCCCN)C(=O)N[C@@H](CCCCN)C(=O)N[C@@H](CC(C)C)C(=O)N[C@@H](Cc1c[nH]c2ccccc12)C(=O)N[C@@H](C)C(=O)O)[C@@H](C)CC)[C@@H](C)CC	–	concentration not given	relative to: MIC against Gram-positive bacteria	non-haemolytic concentration	> 100 x MIC
CC(C)[C@@H](CC(=O)N[C@@H](CCCCN)CC(=O)N[C@H](CC(=O)N[C@H](CC(=O)N[C@@H](CCCCN)CC(=O)N[C@H](CC(=O)N[C@H](CC(=O)N[C@@H](CCCCN)CC(N)=O)C(C)C)C(C)C)C(C)C)C(C)C)NC(=O)C[C@@H](NC(=O)C[C@@H](N)Cc1ccc(O)cc1)C(C)C	–	antifungal MIC, 1 h, 37 °C	relative to: melittin	haemolysis	8.8 ± 3.6%
CC[C@@H](C)[C@H](NC(=O)[C@H](C)NC(=O)[C@H](CCCCN)NC(=O)[C@H](CC(C)C)NC(=O)[C@H](C)NC(=O)[C@@H](NC(=O)[C@H](Cc1c[nH]cn1)NC(=O)[C@H](CC(C)C)NC(=O)[C@@H](NC(=O)[C@@H](NC(=O)[C@H](CCCCN)NC(=O)[C@H](CCCCN)NC(=O)[C@H](C)NC(=O)[C@H](CO)NC(=O)[C@H](CCCCN)NC(=O)[C@H](Cc1ccccc1)NC(=O)[C@@H](NC(=O)[C@H](CCCCN)NC(=O)[C@H](CC(C)C)NC(=O)[C@H](Cc1ccccc1)NC(=O)[C@H](CO)NC(=O)[C@H](CCCCN)NC(=O)[C@H](Cc1c[nH]c2ccccc12)NC(=O)[C@H](CCCCN)NC(C)=O)[C@@H](C)O)[C@@H](C)O)C(C)C)[C@@H](C)O)C(=O)N[C@@H](CO)C(=O)N[C@@H](CO)C(N)=O	–	1 h, 37 °C	–	minimal haemolytic concentration	500 µg/mL

For quick reference, copied from above:
Compound	assay	setting	scale	measurement	result
CC[C@H](C)[C@H](NC(=O)[C@H](Cc1c[nH]c2ccccc12)NC(=O)[C@H](CCCCN)NC(=O)[C@H](CC(C)C)NC(=O)[C@@H](NC(=O)[C@@H](NC(=O)CNC(=O)[C@H](CCCCN)NC(=O)[C@H](Cc1c[nH]cn1)NC(=O)[C@H](CCCCN)NC(=O)[C@H](Cc1c[nH]c2ccccc12)NC(=O)[C@H](C)NC(=O)[C@H](CC(C)C)NC(=O)[C@H](CO)NC(=O)[C@@H](NC(=O)[C@H](Cc1ccc(O)cc1)NC(=O)[C@H](CCCCN)NC(=O)[C@H](CCC(N)=O)NC(=O)CNC(=O)[C@H](CCCCN)NC(=O)[C@@H](NC(=O)[C@H](C)NC(=O)[C@H](CC(C)C)NC(=O)[C@H](Cc1ccccc1)NC(=O)[C@H](CCC(N)=O)NC(=O)[C@@H](NC(=O)[C@H](CC(C)C)NC(=O)[C@H](CCCCN)NC(=O)[C@H](CCSC)NC(=O)[C@H](Cc1ccccc1)NC(=O)[C@H](C)NC(=O)[C@H](C)NC(=O)[C@H](CCSC)NC=O)[C@@H](C)CC)[C@@H](C)O)C(C)C)[C@@H](C)O)[C@@H](C)CC)C(=O)N[C@@H](CC(N)=O)C(=O)N[C@@H](C)C(=O)NCC(=O)N[C@@H](CCC(N)=O)C(=O)N[C@@H](CO)C(=O)N[C@@H](Cc1ccccc1)C(=O)N[C@@H](CCC(=O)O)C(=O)N[C@@H](Cc1c[nH]c2ccccc12)C(=O)N[C@H](C(=O)N[C@@H](Cc1ccc(O)cc1)C(=O)N[C@@H](CCCCN)C(=O)N[C@@H](CCC(N)=O)C(=O)N[C@H](C(=O)N[C@@H](CCCCN)C(=O)N[C@@H](CCCCN)C(=O)N[C@@H](CC(C)C)C(=O)N[C@@H](Cc1c[nH]c2ccccc12)C(=O)N[C@@H](C)C(=O)O)[C@@H](C)CC)[C@@H](C)CC	–	concentration not given	relative to: MIC against Gram-positive bacteria	non-haemolytic concentration	> 100 x MIC
